Results from different studies.
Each line is one published result; not all experiments were run side by side. “And” joins repeats or separate records; there may be more than shown. ± marks the error that the study gave.

With `Cn1cnc2c(F)c(Nc3ccc(Br)cc3Cl)c(C(=O)NOCCO)cc21` the AUC was 2.62 µg·h/mL (healthy subjects, plasma; oral, 50 mg single dose).
`CC(C)(CO)c1cc2cc(NC(=O)C3(c4ccc5c(c4)OC(F)(F)O5)CC3)c(F)cc2n1C[C@@H](O)CO` gave an AUC ratio of 4.02 (healthy subjects, plasma; oral, 25 mg tezacaftor once daily, together with: ivacaftor 50 mg, itraconazole 200 mg; reference: with over without itraconazole).
`Cc1cc(=O)n(-c2ccccc2)n1C`: “AUC of placental transfer” 3510 ± 988 %·min (perfused human placental cotyledon; 531 µM, 1 to 120 min, maternal to fetal, together with: barusiban 1.2 µM).
`CNCc1ccc(-c2[nH]c3cc(F)cc4c3c2CCNC4=O)cc1`: “AUC at steady state” 14.9 ± 2.6 µg·h/mL (noncompartmental analysis; patients, plasma; oral, 600 mg twice daily, day 1, together with: bevacizumab infusion).
`CC#CC(=O)N1CCC[C@H]1c1nc(-c2ccc(C(=O)Nc3ccccn3)cc2)c2c(N)nccn12` has an AUC increase of 1.46 fold and 1.5 fold (mild hepatic impairment (Child-Pugh A), plasma; oral, 50 mg single; reference: healthy subjects).
With `Nc1nc(NC2CC2)c2ncn([C@H]3C=C[C@@H](CO)C3)c2n1` the AUC was 8.9 µg·h/mL (HIV-infected children and adolescents, Tanner stage 3-5, plasma; oral, 8 mg/kg, 0 to 8 h).
With `COc1cc2c(cc1OC)CN(CCc1ccc(NC(=O)c3cc(OC)c(OC)cc3NC(=O)c3cnc4ccccc4c3)cc1)CC2` the AUC was 19.7 µg·h/mL (human, plasma; intravenous infusion, 6 mg/kg, up to 24 h after infusion end).
For `O=C(O)C[C@H](O)C[C@H](O)/C=C/c1c(C2CC2)nc2ccccc2c1-c1ccc(F)cc1`, “AUC at steady state” read 0.28 µg·h/mL (healthy Chinese female volunteers, plasma; oral, 2 mg once daily, multiple dose).
`O=C1CCc2ccc(OCCCCN3CCN(c4cccc(Cl)c4Cl)CC3)cc2N1` has an AUC of 1.53 ± 0.289 µg·h/mL (healthy Japanese men, CYP2D6 EM, plasma; oral, 3 mg aripiprazole single, together with: fluvoxamine 100 mg/day).
Under “AUC over dosing interval”, `O=C(c1cccnc1-c1ccncc1)N1CCC(O)(Cc2ccccc2)CC1` is recorded as 1.46 µg·h/mL (healthy subjects, plasma; oral, 300 mg twice daily, day 1).
For `CN1CCN(c2ccc3nc(-c4c(N)c5c(F)cccc5[nH]c4=O)[nH]c3c2)CC1`, the AUC was 3.85 µg·h/mL (patients, plasma; oral, 300 mg daily 5 days on 2 off, day 19, AUC 0-24 h median, together with: gemcitabine and capecitabine).
`C[C@@H](Oc1ccc(S(C)(=O)=O)cc1C(=O)N1C[C@@H]2C[C@]2(c2cc(C(F)(F)F)on2)C1)C(F)(F)F` — result for “AUC at steady state”: 12.2 µM·h (healthy young subjects, plasma; oral, 25 mg, fed).

Repeated from above:
Under “AUC over dosing interval”, `O=C(c1cccnc1-c1ccncc1)N1CCC(O)(Cc2ccccc2)CC1` is recorded as 1.46 µg·h/mL (healthy subjects, plasma; oral, 300 mg twice daily, day 1).
